Results collected from several papers.
Each numbered part is a random draw from the data of one study; scales do not carry over between parts. Positions count from the first letter of the parent shown.

Set 1 — method: aptamer microarray, sandwich; molecule type: DNA with 2'F-ANA; sample: in vitro; concentration: 200 nM; with: Cy3 exosite-II aptamer, 400 nM; direction: higher = stronger binding; quantity: mean fluorescence intensity; sequence: GGTTGGTGTGGTTGG
Target: Prothrombin, mature alpha-thrombin (F2, Homo sapiens, UniProt P00734)
Setting: whole 15-mer aptamer, many near background
Modification = 2'F-ANA at 1 2 4 5 7 8 13 14; result = 43.6 a.u.
Modification = 2'F-ANA at 2 3 4 5 6 7 11 12 13; result = 101 a.u.
Modification = 2'F-ANA at 3 4 5 8 9 11 13 14 15; result = 51 a.u.
Modification = 2'F-ANA at 1 3 4 6 8 10 12 13 14; result = 85.9 a.u.
Modification = 2'F-ANA at 1 2 5 6 7 8 10 11; result = 52 a.u.
Modification = 2'F-ANA at 2 3 4 5 8 9 10 13 14 15; result = 93.5 a.u.
Modification = 2'F-ANA at 1 2 5 7 8 10 12; result = 48.4 a.u.
Modification = 2'F-ANA at 3 6 7 11 12 13 15; result = 1030 a.u.

Set 2 — method: RNAcompete; molecule type: RNA; sample: in vitro; concentration: 20 nM; setting: 7-mer, probes averaged, single round; relative to: mean of 7-mers; direction: higher = stronger binding; quantity: 7-mer Z-score
Target: PABPC1L2, full length, GST fusion (mouse, UniProt A0ABA7IW68)
Residues (chain): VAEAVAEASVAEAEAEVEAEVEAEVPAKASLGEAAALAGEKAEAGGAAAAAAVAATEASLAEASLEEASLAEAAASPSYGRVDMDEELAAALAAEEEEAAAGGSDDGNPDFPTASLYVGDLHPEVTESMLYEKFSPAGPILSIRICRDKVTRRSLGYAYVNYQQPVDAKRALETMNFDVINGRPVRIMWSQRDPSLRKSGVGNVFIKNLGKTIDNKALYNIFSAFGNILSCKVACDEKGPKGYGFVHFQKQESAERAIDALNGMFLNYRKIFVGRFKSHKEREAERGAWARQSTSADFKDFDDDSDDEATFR
Sequence = AUAAUCU; result = -0.0373
Sequence = GCUGCGG; result = 0.0406
Sequence = ACUGGAA; result = 0.329
Sequence = AGUAUUC; result = -0.244
Sequence = GUACGGG; result = 0.0623
Sequence = AAUUACU; result = -0.0645
Sequence = GUUACCG; result = -0.298
Sequence = AGAAAUC; result = 0.631

Mixed results
P1: viral docking peptide; KGVKRKLFAEDSS; partner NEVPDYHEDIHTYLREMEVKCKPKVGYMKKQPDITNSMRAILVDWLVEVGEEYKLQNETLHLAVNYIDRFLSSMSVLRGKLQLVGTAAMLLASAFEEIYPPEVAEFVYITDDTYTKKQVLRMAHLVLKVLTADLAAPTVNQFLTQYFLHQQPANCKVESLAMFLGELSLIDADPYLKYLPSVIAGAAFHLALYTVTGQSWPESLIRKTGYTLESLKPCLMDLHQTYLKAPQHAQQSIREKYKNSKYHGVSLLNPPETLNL
Substance = SAE1 (Homo sapiens, UniProt Q9UBE0); target or system = UBA2 (Homo sapiens, UniProt Q9UBT2); assay = cross-linking MS; setting = hits only; quantity = interaction screen; result = cross-linked
Substance = P1 E10C; target or system = CCNA2, cyclin fold, Cln2 fusion (human); assay = yeast growth competition, sequencing; system = yeast; setting = strong parent motif; scale = relative to: not given, higher = stronger binding; quantity = normalised enrichment score; result = 5.65
Substance = LSP1 (Homo sapiens, UniProt P33241); target or system = DNAAF1 (Homo sapiens, UniProt Q8NEP3); assay = cross-linking MS; system = cell fractions; setting = with: DMTMM; quantity = cross-linked residues; result = K316 to D45
Substance = PhoQ, residues 284 288 289 292 302 303 SIHLQL; target or system = PhoP, residues 12 14 15 18 19 TPLRH (Escherichia coli, UniProt P23836); assay = Sort-seq, item: YFP reporter; system = E. coli; setting = PhoQ-PhoP variant library, with: 10 µM Mg2+; scale = relative to: high Mg2+ state, higher = stronger signaling; quantity = fold induction; result = 6.14
Substance = MCM3 (Homo sapiens, UniProt P25205); target or system = MCM7 (Homo sapiens, UniProt P33993); assay = cross-linking MS; setting = hits only; quantity = interaction screen; result = cross-linked

Excerpt of the above (mixed results):
Substance = PhoQ, residues 284 288 289 292 302 303 SIHLQL; target or system = PhoP, residues 12 14 15 18 19 TPLRH (Escherichia coli, UniProt P23836); assay = Sort-seq, item: YFP reporter; system = E. coli; setting = PhoQ-PhoP variant library, with: 10 µM Mg2+; scale = relative to: high Mg2+ state, higher = stronger signaling; quantity = fold induction; result = 6.14
Substance = SAE1 (Homo sapiens, UniProt Q9UBE0); target or system = UBA2 (Homo sapiens, UniProt Q9UBT2); assay = cross-linking MS; setting = hits only; quantity = interaction screen; result = cross-linked
Substance = LSP1 (Homo sapiens, UniProt P33241); target or system = DNAAF1 (Homo sapiens, UniProt Q8NEP3); assay = cross-linking MS; system = cell fractions; setting = with: DMTMM; quantity = cross-linked residues; result = K316 to D45
